Measurements collected from several papers.
Numbered parts are unrelated; each lists some results of a single study. Changes are numbered by the printed parent chain.

Block 1
Target: RNA binding protein fox-1 homolog 2, RRM domain, GST-SBP tag (RBFOX2, Homo sapiens, UniProt O43251-10, residues 100-194)
Technique: RNA Bind-n-Seq
Molecule type: RNA
Medium: in vitro
Tested at: 365 nM
Notes: natural RNA segment, single round, ends assumed
Reference: no-protein control
Direction: higher = stronger binding
Target sequence (chain): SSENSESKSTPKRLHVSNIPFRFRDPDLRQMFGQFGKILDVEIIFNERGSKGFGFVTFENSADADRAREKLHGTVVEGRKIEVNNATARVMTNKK
Under “RBNS enrichment (R)”, `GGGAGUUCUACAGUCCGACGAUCUCCUAUCUGUUACCAUAACAGAGUAGCAUUAAUAGUGUUAAGGAUUGGUGCUAGCCCAUGGGAUCGAUCUCAAGUUGGGCUGGUUACUGGUUAGCCAUUCCCUCACUCUCUGGAAUUCUCGGGUGCCAA` is recorded as 0.315.
`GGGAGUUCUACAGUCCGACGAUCUGUGUGUUUUUGGUUAAGUUUCUGGAAGAAUACAAUGCUUUUAUAUUGGAAGUAUAAGUUUUGAGUGGCAUUGUUGCCUUCUAACAAGCUCUCUGGGACUUUUAAAGUUUUGGAAUUCUCGGGUGCCAA` — result for “RBNS enrichment (R)”: 0.633.
Under “RBNS enrichment (R)”, `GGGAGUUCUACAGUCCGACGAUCAGCUUGCCACUCGGCUAGCGAAAAUAAUUAACAUUAUUAUGAGAAAGUGGAUUUAUCUAAAGUGGAACCAGCUGACAUUAUAUCUGUAUCGUAUGGAGAAUGAUGAAGGGUGGAAUUCUCGGGUGCCAA` is recorded as 0.324.
`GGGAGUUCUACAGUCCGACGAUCUUUUAGCAGCAGCUAAAAGGCCUGUAGUUUUACUCUCUCUCUCCUCUCUCUCUCUCUCUCUCUCUCUCUCCCUCUCUCCUCUCUGUCUUCAUCAUCUUUGAGAUCAUUAGUGGAAUUCUCGGGUGCCAA`: “RBNS enrichment (R)” 1.27.
Under “RBNS enrichment (R)”, `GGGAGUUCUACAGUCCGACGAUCUCUGAGAUAGCUGGAUUGUAUAUACUUGCAGAUUUAAAAAUAUAGGGAAAUUGAAAAAGACAUGUAGAAUUUUGUUAGGUCUUCUGCUAAGCACGAAUAAGAUAUCUGCUUGGAAUUCUCGGGUGCCAA` is recorded as 4.23.
`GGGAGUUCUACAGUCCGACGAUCCCUUUUUCACCUUUUAAUUUUAUAUUAUUUGUGUCAUACAUUUCCAGUAAUGGAAGUGUUAAUUUUACUGUACUUUUUGGUACCUUUUGGGAAUCUAAUGUAUUGUAAGGUGGAAUUCUCGGGUGCCAA` — result for “RBNS enrichment (R)”: 1.87.
`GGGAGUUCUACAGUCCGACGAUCCAAAACAGUGCUAAAAUCAAAGGUGUUUGCUGUGAAGAAAAACAUGUGUAUAUAUUGCACCUUGAGUUGUCAGAAGGUAGAAACUGAAAUAAACUAACUUUAAAAAAAAAUGGAAUUCUCGGGUGCCAA`: “RBNS enrichment (R)” 0.658.
Under “RBNS enrichment (R)”, `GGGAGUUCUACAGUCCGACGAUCAAAGGAAAUACUUCAAAACCUUGUUCAUUACCUAGACCAGUUAUUAUCUGUCUGGACAUAGUUGUGUUCCUCUAAAUUGGAUGUACUAAAUAGUUUACAAGUUAUCCUACUGGAAUUCUCGGGUGCCAA` is recorded as 0.381.

Block 2
Target: Ras GTPase-activating protein-binding protein 1, full length (G3BP1, Homo sapiens, UniProt Q13283)
Sequence of UniProt Q13283 (whole entry, looked up): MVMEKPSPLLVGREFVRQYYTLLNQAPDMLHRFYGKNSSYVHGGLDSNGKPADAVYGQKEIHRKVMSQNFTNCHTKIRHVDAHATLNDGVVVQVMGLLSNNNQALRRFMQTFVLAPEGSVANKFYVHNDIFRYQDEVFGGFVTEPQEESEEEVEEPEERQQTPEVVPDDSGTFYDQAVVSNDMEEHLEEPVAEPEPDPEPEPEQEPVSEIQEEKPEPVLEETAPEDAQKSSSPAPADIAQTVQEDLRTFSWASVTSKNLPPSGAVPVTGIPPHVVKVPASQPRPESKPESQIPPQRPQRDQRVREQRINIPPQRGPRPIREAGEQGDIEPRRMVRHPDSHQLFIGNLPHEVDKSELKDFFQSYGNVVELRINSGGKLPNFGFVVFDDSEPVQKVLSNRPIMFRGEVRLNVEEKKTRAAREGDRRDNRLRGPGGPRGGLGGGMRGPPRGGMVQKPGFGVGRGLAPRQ
Technique: RNA Bind-n-Seq
Molecule type: RNA
Medium: in vitro
Tested at: 200 nM
Notes: whole 134-nt RNA, ends assumed
With: 150 mM KCl
Reference: input library
Direction: higher = stronger binding
With `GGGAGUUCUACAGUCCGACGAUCUGGGAGGUGGAUUUUGUUUAUUUUUUUAGCUCACUUCCAGGGGUGGGAAUUUUUUUUUAAUAUGUGUCAUGAAUAAAGUUGUUUUUGAAAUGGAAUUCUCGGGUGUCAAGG` the log2 enrichment was 0.39.
For `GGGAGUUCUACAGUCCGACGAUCUCCUGUGCUACACAUCGUAUGUACCGAAUCGGGGCCCCCCGGCCCCCCGGGGCCCCCCGGAAAGUAUUAUGUUACGCCGUUCGGAUCUGCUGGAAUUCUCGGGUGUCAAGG`, the log2 enrichment was 0.112.
For `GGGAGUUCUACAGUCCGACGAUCAGUCCUGUGCUACACAUCGUAUGUACCGAAUCGGGGUUUGGGGAAAGGGGAAAGGGGAAAGUAUUAUGUUACGCCGUUCGGAUCUGCACUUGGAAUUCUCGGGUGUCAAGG`, the log2 enrichment was 0.795.
`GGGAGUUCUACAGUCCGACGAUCAGUCCUGUGCUACACAUCGUAUGUACCGAAUCGGGUUUUGGUUUUGGGGUUUUGGGGAAAGUAUUAUGUUACGCCGUUCGGAUCUGCACUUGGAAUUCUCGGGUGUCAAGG` gave a log2 enrichment of -0.346.
With `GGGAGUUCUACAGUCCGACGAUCCUGUGCUACACAUCGUAUGUACCGAAUCGGGGAAAAAGGGGUUUUUGGGGAAAAAAAGGGGAAAGUAUUAUGUUACGCCGUUCGGAUCUGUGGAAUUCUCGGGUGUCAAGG` the log2 enrichment was -0.276.
For `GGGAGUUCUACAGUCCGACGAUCAGUCCUGUGCUACACAUCGUAUGUACCGAAUCGGGAAAAAGGGUUUGGGAAAAAGGGAAAGUAUUAUGUUACGCCGUUCGGAUCUGCACUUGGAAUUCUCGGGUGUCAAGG`, the log2 enrichment was -0.673.
For `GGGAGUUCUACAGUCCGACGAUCCUGUGCUACACAUCGUAUGUACCGAAUCGGGGAAAAAAAGGAAAAAAAGGAAAAAAAGGGGAAAGUAUUAUGUUACGCCGUUCGGAUCUGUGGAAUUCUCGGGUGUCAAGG`, the log2 enrichment was -0.803.
`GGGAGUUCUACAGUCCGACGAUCUAACUUUAGAGGAGCAUCUGAUGGAUAUGGCAGUGGACGUGGAUUUGGGGAUGGCUAUAAUGGGUAUGGAGGAGGACCUGGAGGUGGCAAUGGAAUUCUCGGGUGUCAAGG` has a log2 enrichment of 0.688.
`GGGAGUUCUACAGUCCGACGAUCGUCCUGUGCUACACAUCGUAUGUACCGAAUCGGCCCCCCGGGGCCCCCCGGCCCCCCGGAAAGUAUUAUGUUACGCCGUUCGGAUCUGCAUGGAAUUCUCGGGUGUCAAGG` has a log2 enrichment of -0.449.

Block 3
Target: CCNB2, cyclin fold, Cln2 fusion (human)
Technique: yeast growth competition, sequencing
Medium: yeast
Notes: strong parent motif
Reference: not given
Direction: higher = stronger binding
Starting sequence: PKMYT1 docking peptide (human); SFEPRNLLSLFED; partner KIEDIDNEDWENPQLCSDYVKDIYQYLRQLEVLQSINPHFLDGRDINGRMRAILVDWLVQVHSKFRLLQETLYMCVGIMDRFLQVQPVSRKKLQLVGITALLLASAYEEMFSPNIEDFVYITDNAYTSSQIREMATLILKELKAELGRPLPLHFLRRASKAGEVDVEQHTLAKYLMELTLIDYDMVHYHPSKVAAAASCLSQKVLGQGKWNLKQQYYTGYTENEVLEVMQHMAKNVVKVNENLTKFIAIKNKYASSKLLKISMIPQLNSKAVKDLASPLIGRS
Under “normalised enrichment score”, `E3S` is recorded as 0.53.
`N6D` — result for “normalised enrichment score”: -0.0982.
`L7E`: “normalised enrichment score” -1.01.
`L7P` — result for “normalised enrichment score”: -1.01.
Under “normalised enrichment score”, `P4K` is recorded as 1.13.
Under “normalised enrichment score”, `R5C` is recorded as 1.48.
For `E3A`, “normalised enrichment score” read 1.54.
Under “normalised enrichment score”, `F11G` is recorded as -0.364.

Further values, each from its own experiment
`PhoQ, residues 284 288 289 292 302 303 TNASYF` gave a fold induction of 4.74 (PhoP, residues 12 14 15 18 19 AGCRL (Escherichia coli, UniProt P23836); Sort-seq, measured: YFP reporter; E. coli; PhoQ-PhoP variant library, with: 10 µM Mg2+; reference: high Mg2+ state, higher = stronger signaling).
